{"data": "Experimental data from different studies", "cell line": "A549", "note": "Each line is one published result; not all experiments were run side by side. ± gives the spread as reported."}
{"Structure (SMILES)": "COc1cc(C2=CCCc3c2ccc(OC)c3OC(C)(C)c2ccc([N+](=O)[O-])s2)cc(OC)c1OC", "conditions": "4 h, anoxic", "quantity": "IC50", "result": "180 ± 6 nM"}
{"Structure (SMILES)": "[Br-].c1ccc2cc(Cn3c[n+](Cc4ccc5ccccc5c4)c4ccccc43)ccc2c1", "assay": "NCI60 five-dose", "quantity": "TGI", "result": "3.88 µM"}
{"Structure (SMILES)": "COc1c(C)c(OCc2ccccc2)c(C)c(O)c1C(=O)/C=C/c1ccccc1", "scale": "baseline: CL over A549", "quantity": "selectivity index", "result": 2.26}
{"Structure (SMILES)": "CC1=CC(=O)c2ccccc2C1=O", "assay": "MTT", "scale": "baseline: IC50 MRC-5 over IC50 A549", "quantity": "selectivity index", "result": 0.4}
{"Structure (SMILES)": "COc1cnc2cccc(N3CCc4c(cc(Cn5ccnc5C)cc4-c4cn(C)nc4C(F)(F)F)C3=O)c2c1", "assay": "cell growth, inhibitor", "conditions": "120 h", "quantity": "EC50", "result": "> 30 µM"}
{"Structure (SMILES)": "CCOC(=O)C1CCN(C(=O)c2ccc(N(CC)Cc3cnc4nc(N)nc(N)c4n3)cc2)CC1", "assay": "CellTiter-Glo", "conditions": "10 µM", "scale": "100 none, 0 cytostatic, -100 cytotoxic", "quantity": "cell growth", "result": "11.4 ± 11.3%"}
{"Structure (SMILES)": "CCN(CC)c1ccc(C=NNC(=O)CSc2nc3ccccc3c(=O)n2Cc2ccc(S(N)(=O)=O)cc2)c(O)c1", "assay": "NCI five-dose screen", "quantity": "TGI", "result": "> 100 µM"}
{"Structure (SMILES)": "COC(=O)C1CCN(C(=O)c2ccc(N(CCO)Cc3cnc4nc(N)nc(N)c4n3)cc2)CC1", "assay": "CellTiter-Glo", "conditions": "10 µM", "scale": "100 none, 0 cytostatic, -100 cytotoxic", "quantity": "cell growth", "result": "142 ± 14.5%"}
{"Structure (SMILES)": "CCOc1ccc(-c2nc3cc(-c4nc5cc(N6CCN(C)CC6)ccc5[nH]4)ccc3[nH]2)cc1OCC", "assay": "SRB", "conditions": "10 µM, 48 h", "quantity": "growth percent", "result": "79.2%"}
{"Structure (SMILES)": "Cc1nc(N(Cc2ccccc2)c2ccc3c(c2)/C(=C/c2ccccc2)C(=O)N3Cc2ccccc2)c2ccccc2n1 (mixture of isomers)", "conditions": "0.3 µM, 24 h", "quantity": "wound healing rate", "result": "39.1%"}
{"Structure (SMILES)": "COc1cc(C2=CCCc3c2ccc(OC)c3OCc2cnc([N+](=O)[O-])n2C)cc(OC)c1OC", "assay": "cell growth, SRB", "conditions": "4 h exposure then 120 h oxic, oxic exposure then drug removal", "quantity": "IC50", "result": "800 ± 580 nM"}
{"Structure (SMILES)": "COc1ccc(-c2cccc(Cc3ncnc4cc(OC)c(OC)cc34)c2)cc1OC", "assay": "mitochondrial oxygen consumption, Seahorse XF96", "conditions": "10 µM", "quantity": "inhibition", "result": "59%"}
{"Structure (SMILES)": "O=C1NC(c2ccccc2)(c2ccccc2)C(=O)N1Cc1cn(-c2cc3ccccc3oc2=O)nn1", "assay": "NCI60 single dose", "conditions": "10 µM", "quantity": "growth", "result": "91.1%"}
{"Structure (SMILES)": "CCCCCC(=O)Oc1c(C)c(O)c(C(=O)/C=C/c2ccccc2)c(OC)c1C", "scale": "baseline: CL over A549", "quantity": "selectivity index", "result": 0.95}
{"Structure (SMILES)": "COC(=O)C1CCN(C(=O)c2ccc(N(Cc3ccccc3)Cc3cnc4nc(N)nc(N)c4n3)cc2)CC1", "assay": "CellTiter-Glo", "conditions": "10 µM", "scale": "100 none, 0 cytostatic, -100 cytotoxic", "quantity": "cell growth", "result": "126 ± 7.66%"}
{"Structure (SMILES)": "COc1cc(C2=CCCc3c2ccc(OC)c3OCc2ccc([N+](=O)[O-])cc2)cc(OC)c1OC", "conditions": "4 h, anoxic", "quantity": "IC50", "result": "130 ± 20 nM"}
{"Structure (SMILES)": "COc1ccc2c(Cc3ccc(OC)c(OC)c3)ccnc2c1", "assay": "mitochondrial oxygen consumption, Seahorse XF96", "conditions": "10 µM", "quantity": "inhibition", "result": "13%"}
{"Structure (SMILES)": "CCCCN1CCN(c2ccc3[nH]c(-c4ccc5[nH]c(-c6ccc(C(F)(F)F)cc6)nc5c4)nc3c2)CC1", "assay": "SRB", "conditions": "10 µM, 48 h", "quantity": "growth percent", "result": "-71.9%"}
{"Structure (SMILES)": "COc1ccc2c(c1)NC(=O)CN2c1nc(C)nc2ccccc12", "assay": "flow cytometry", "conditions": "0.001 µM, 24 h", "quantity": "cells in G2/M phase", "result": "21.9%"}
{"Structure (SMILES)": "COc1c(C)c(OC(=O)c2ccc(C)cc2)c(C)c(O)c1C(=O)/C=C/c1ccccc1", "scale": "baseline: CL over A549", "quantity": "selectivity index", "result": 1.13}
{"Structure (SMILES)": "COc1ccc(-c2cccc(Cc3ncnc4cc(OC)c(OC)cc34)c2)cc1", "assay": "mitochondrial oxygen consumption, Seahorse XF96", "conditions": "10 µM", "quantity": "inhibition", "result": "54%"}
{"Structure (SMILES)": "Cc1cc(NS(=O)(=O)c2ccc(NC(=O)/C(C#N)=C/c3ccncc3)cc2)no1", "assay": "cytotoxicity, MTT", "scale": "baseline: HSF over A549 IC50", "quantity": "selectivity index", "result": "> 1.02"}
{"Structure (SMILES)": "COC(=O)C1CCN(C(=O)c2cccc(NCc3cnc4nc(N)nc(N)c4n3)c2)CC1", "assay": "CellTiter-Glo", "conditions": "10 µM", "scale": "100 none, 0 cytostatic, -100 cytotoxic", "quantity": "cell growth", "result": "148.1 ± 0.88%"}
{"Structure (SMILES)": "CCCN1CCN(c2ccc3[nH]c(-c4ccc5[nH]c(-c6ccc(C(F)(F)F)cc6)nc5c4)nc3c2)CC1", "assay": "SRB", "conditions": "10 µM, 48 h", "quantity": "growth percent", "result": "-65.1%"}
{"Structure (SMILES)": "COc1cccc2c1C(=O)c1c(O)c3c(c(O)c1C2=O)C[C@@](O)(C(=O)CO)C[C@@H]3O[C@H]1C[C@H](N)[C@H](O)[C@H](C)O1", "assay": "MTT", "scale": "baseline: BJ1 over A549", "quantity": "selectivity index", "result": 0.9}
{"Structure (SMILES)": "COC(=O)C1CCN(C(=O)Cc2ccc(NCc3cnc4nc(N)nc(N)c4n3)cc2)CC1", "assay": "CellTiter-Glo", "conditions": "10 µM", "scale": "100 none, 0 cytostatic, -100 cytotoxic", "quantity": "cell growth", "result": "105 ± 2.15%"}
{"Structure (SMILES)": "COc1cccc2c1C(=O)c1c(O)c3c(c(O)c1C2=O)C[C@@](O)(C(=O)CO)C[C@@H]3O[C@H]1C[C@H](N)[C@H](O)[C@H](C)O1", "assay": "WST-1", "conditions": "concentration not given, 72 h, highest tested concentration", "quantity": "maximal cytotoxicity", "result": "86.2%"}
{"Structure (SMILES)": "COc1cc(C2=CCCc3c2ccc(OC)c3OCc2ccc([N+](=O)[O-])o2)cc(OC)c1OC", "assay": "cell growth, SRB", "conditions": "4 h exposure then 120 h oxic, oxic exposure then drug removal", "quantity": "IC50", "result": "20 ± 8 nM"}
{"Structure (SMILES)": "CN1CCN(c2ccc3[nH]c(-c4ccc5[nH]c(-c6ccc(C(F)(F)F)cc6)nc5c4)nc3c2)CC1", "assay": "SRB", "conditions": "10 µM, 48 h", "quantity": "growth percent", "result": "89.8%"}
{"Structure (SMILES)": "c1ccc(-c2cccc(Cc3ccnc4cc(C5COC5)ccc34)c2)cc1", "assay": "mitochondrial oxygen consumption, Seahorse XF96", "conditions": "10 µM", "quantity": "inhibition", "result": "22%"}
{"Structure (SMILES)": "O=C(NOC[C@H](O)CO)c1ccc(F)c(F)c1Nc1ccc(I)cc1F", "conditions": "0.03906 µM, 72 h", "quantity": "viability", "result": "99.5%"}
{"Structure (SMILES)": "COc1ccc2nccc(Cc3cccc(-c4ccccc4)c3)c2c1", "assay": "mitochondrial oxygen consumption, Seahorse XF96", "conditions": "10 µM", "quantity": "inhibition", "result": "81%"}
{"Structure (SMILES)": "CCCCc1n(Cc2ccc3ccccc3c2)c2ccccc2[n+]1Cc1ccc2ccccc2c1.[Br-]", "assay": "NCI60 five-dose", "quantity": "TGI", "result": "2.42 µM"}
{"Structure (SMILES)": "COc1ccc(Cc2nccc3cc(OC)c(OC)cc23)cc1OC", "assay": "mitochondrial oxygen consumption, Seahorse XF96", "conditions": "10 µM", "quantity": "inhibition", "result": "49%"}
{"Structure (SMILES)": "O=c1[nH]cc(F)c(=O)[nH]1", "assay": "cytotoxicity, MTT", "scale": "baseline: HSF over A549 IC50", "quantity": "selectivity index", "result": 1.81}
{"Structure (SMILES)": "COc1cc(C2=CCCc3c2ccc(OC)c3OCc2ccc([N+](=O)[O-])s2)cc(OC)c1OC", "assay": "cell growth, SRB", "conditions": "4 h exposure then 120 h oxic, oxic exposure then drug removal", "quantity": "IC50", "result": "380 ± 30 nM"}
{"Structure (SMILES)": "COc1cc2ncnc(Cc3cccc(-c4cccnc4)c3)c2cc1OC", "assay": "mitochondrial oxygen consumption, Seahorse XF96", "conditions": "10 µM", "quantity": "inhibition", "result": "8%"}
{"Structure (SMILES)": "Cn1cnc2c(F)c(Nc3ccc(Br)cc3F)c(C(=O)NOCCO)cc21", "conditions": "5 µM, 72 h", "quantity": "viability", "result": "52.4%"}
{"Structure (SMILES)": "COc1cc2ncnc(Cc3cccc(-c4ccccc4)c3)c2cc1OC", "assay": "mitochondrial oxygen consumption, Seahorse XF96", "conditions": "10 µM", "quantity": "inhibition", "result": "45%"}
{"Structure (SMILES)": "O=c1ccn(Cc2cn(-c3c4ccccc4nc4ccccc34)nn2)c(=O)[nH]1", "assay": "NCI60 single dose", "conditions": "10 µM", "quantity": "growth", "result": "91.2%"}
{"note": "For quick reference, copied from above:"}
{"Structure (SMILES)": "CCN(CC)c1ccc(C=NNC(=O)CSc2nc3ccccc3c(=O)n2Cc2ccc(S(N)(=O)=O)cc2)c(O)c1", "assay": "NCI five-dose screen", "quantity": "TGI", "result": "> 100 µM"}
{"Structure (SMILES)": "COC(=O)C1CCN(C(=O)c2ccc(N(CCO)Cc3cnc4nc(N)nc(N)c4n3)cc2)CC1", "assay": "CellTiter-Glo", "conditions": "10 µM", "scale": "100 none, 0 cytostatic, -100 cytotoxic", "quantity": "cell growth", "result": "142 ± 14.5%"}
{"Structure (SMILES)": "CCOc1ccc(-c2nc3cc(-c4nc5cc(N6CCN(C)CC6)ccc5[nH]4)ccc3[nH]2)cc1OCC", "assay": "SRB", "conditions": "10 µM, 48 h", "quantity": "growth percent", "result": "79.2%"}
